Published values collected from several papers.
Compare with care: the assays were run in different laboratories. “And” joins repeats or separate records; there may be more than shown.
Organism: Bacillus subtilis

Under “zone of inhibition”, `O=C1C(Cl)=C(n2ccnc2)C(=O)c2ccccc21` is recorded as 9 mm (MTCC 1427; 10 µg/mL).
`NC(=O)C[C@H](N)C(=O)O` has an EC50 of 0.95 µM (chemotaxis pathway, FRET; 168).
For `CC(=O)C1=NN(c2ccccc2)C(=C(C#N)C(=O)c2ccc(Nc3cnccn3)cc2)S1`, the MIC was 50 µg/mL (broth microdilution; ATCC 35021).
The EC50 of `NCC(=O)O` is reported as 9.6 µM (chemotaxis pathway, FRET; 168).
`Cc1ccc(C(C)C)c(OC2=C(Cl)C(=O)c3ccccc3C2=O)c1`: “zone of inhibition” 17 mm (MTCC 1427; 10 µg/mL).
The DNA area of `COc1cccc2c1C(=O)c1c(O)c3c(c(O)c1C2=O)C[C@@](O)(C(=O)CO)C[C@@H]3O[C@H]1C[C@H](N)[C@H](O)[C@H](C)O1` is reported as 2.05 µm² and 1.86 µm² and 1.59 µm² (bacterial cytological profiling; ATCC 6633).
With `CC1=N/C(=C\c2cc(F)c(O)c(F)c2)C(=O)N1C` the cellular fluorescence was 600% (flow cytometry; IPTG-induced expressing strain; 50 µM, cytoplasmic accumulation; baseline: uninduced cells).
The MIC of `O=C(N[C@H](CO)[C@H](O)c1ccc([N+](=O)[O-])cc1)C(Cl)Cl` is reported as 6.25 µg/mL (broth microdilution; ATCC 35021).
The EC50 of `CC(C)[C@H](N)C(=O)O` is reported as 2.2 µM (chemotaxis pathway, FRET; 168).
`CO[C@H]1/C=C/O[C@@]2(C)Oc3c(C)c(O)c4c(O)c(c(/C=N/N5CCN(C)CC5)c(O)c4c3C2=O)NC(=O)/C(C)=C\C=C\[C@H](C)[C@H](O)[C@@H](C)[C@@H](O)[C@@H](C)[C@H](OC(C)=O)[C@@H]1C` gave a cell area of 1.3 µm² and 1.34 µm² and 1.26 µm² (bacterial cytological profiling; ATCC 6633; concentration not given).
With `N#CC(C#N)=C1SC(C(=O)c2ccc(Nc3cnccn3)cc2)=NN1c1ccccc1` the MIC was 50 µg/mL (broth microdilution; ATCC 35021).
With `CN(C)[C@@H]1C(O)=C(C(N)=O)C(=O)[C@@]2(O)C(O)=C3C(=O)c4c(O)cccc4[C@@](C)(O)[C@H]3C[C@@H]12` the cell length was 2.64 µm and 2.81 µm and 2.6 µm (bacterial cytological profiling; ATCC 6633; concentration not given).
For `CN[C@H](CC(C)C)C(=O)N[C@H]1C(=O)N[C@@H](CC(N)=O)C(=O)N[C@H]2C(=O)N[C@H]3C(=O)N[C@H](C(=O)N[C@H](C(=O)O)c4cc(O)cc(O)c4-c4cc3ccc4O)[C@H](O)c3ccc(c(Cl)c3)Oc3cc2cc(c3O[C@@H]2O[C@H](CO)[C@@H](O)[C@H](O)[C@H]2O[C@H]2C[C@](C)(N)[C@H](O)[C@H](C)O2)Oc2ccc(cc2Cl)[C@H]1O`, the MIC was 0.25 µg/mL (broth microdilution; 168, cation-adjusted Mueller-Hinton broth; 20 to 24 h, 37 °C, 0.002% polysorbate 80).
The EC50 of `O=C(O)[C@@H]1CCCN1` is reported as 0.32 µM (chemotaxis pathway).
The cell perimeter of `CC1(C)S[C@@H]2[C@H](NC(=O)[C@H](N)c3ccccc3)C(=O)N2[C@H]1C(=O)O` is reported as 9.41 µm and 9.74 µm and 8.98 µm (bacterial cytological profiling; ATCC 6633; concentration not given).
`NCCCC[C@H](NC(=O)[C@H](Cc1ccccc1)NC(=O)[C@H](CCC(N)=O)NC(=O)[C@H](Cc1ccccc1)NC(=O)[C@H](CCC(N)=O)NC(=O)[C@@H](N)Cc1ccccc1)C(N)=O` has an MIC of 520 µM (broth microdilution, optical density).
With `COc1ccc(N2N=C(C(C)=O)SC2=C(C#N)C(=O)c2ccc(Nc3cnccn3)cc2)cc1` the MIC was 12.5 µg/mL (broth microdilution; ATCC 35021).
`N[C@@H](Cc1c[nH]cn1)C(=O)O` gave an EC50 of 105 µM (chemotaxis pathway, FRET; 168).
`CC1(C)S[C@@H]2[C@H](NC(=O)[C@H](N)c3ccc(O)cc3)C(=O)N2[C@H]1C(=O)O` — result for “zone of inhibition”: 21 mm (MTCC 1427; 10 µg/mL).
With `N[C@@H](Cc1ccccc1)C(=O)O` the EC50 was 48.6 µM (chemotaxis pathway, FRET; 168).
For `O=C(O)c1cn(C2CC2)c2cc(N3CCNCC3)c(F)cc2c1=O`, the cell width was 0.87 µm and 0.95 µm and 0.93 µm (bacterial cytological profiling; ATCC 6633; concentration not given).
The MIC of `CN[C@H](CC(C)C)C(=O)N[C@H]1C(=O)N[C@@H](CC(N)=O)C(=O)N[C@H]2C(=O)N[C@H]3C(=O)N[C@H](C(=O)N[C@H](C(=O)O)c4cc(O)cc(O)c4-c4cc3ccc4O)[C@H](O)c3ccc(c(Cl)c3)Oc3cc2cc(c3O[C@@H]2O[C@H](CO)[C@@H](O)[C@H](O)[C@H]2O[C@H]2C[C@](C)(N)[C@H](O)[C@H](C)O2)Oc2ccc(cc2Cl)[C@H]1O` is reported as 0.7 µg/mL (ATCC 6633).

Excerpt of the above:
`Cc1ccc(C(C)C)c(OC2=C(Cl)C(=O)c3ccccc3C2=O)c1`: “zone of inhibition” 17 mm (MTCC 1427; 10 µg/mL).
The DNA area of `COc1cccc2c1C(=O)c1c(O)c3c(c(O)c1C2=O)C[C@@](O)(C(=O)CO)C[C@@H]3O[C@H]1C[C@H](N)[C@H](O)[C@H](C)O1` is reported as 2.05 µm² and 1.86 µm² and 1.59 µm² (bacterial cytological profiling; ATCC 6633).
With `CC1=N/C(=C\c2cc(F)c(O)c(F)c2)C(=O)N1C` the cellular fluorescence was 600% (flow cytometry; IPTG-induced expressing strain; 50 µM, cytoplasmic accumulation; baseline: uninduced cells).
The MIC of `O=C(N[C@H](CO)[C@H](O)c1ccc([N+](=O)[O-])cc1)C(Cl)Cl` is reported as 6.25 µg/mL (broth microdilution; ATCC 35021).
